# Measurements of several laboratories.
# Each numbered part is a random draw from the data of one study; scales do not carry over between parts. Substitutions count along the parent as printed.

# Set 1
# Target: CCND2, cyclin fold, Cln2 fusion (human)
# Technique: yeast growth competition, sequencing
# Medium: yeast
# Notes: weak parent motif
# Relative to: not given
# Direction: higher = stronger binding
# Parent: PKMYT1 docking peptide (human); SFEPRNLLSLFED
Change,normalised enrichment score
P4W,0.305
S9V,0.436
D13V,0.0377
L7E,-0.136
D13R,-0.196
S9Q,-0.114
E3W,0.0185

# Set 2
# Target: ABI1, truncated, D143A, DHFR fusion (Arabidopsis thaliana)
# Technique: DHFR PCA, deep sequencing
# Medium: yeast
# Notes: methotrexate growth selection, single substitutions
# Added: (+)-ABA 0.11 µM
# Relative to: wild-type fitted maximum
# Direction: higher = stronger binding
# Parent: PYL1, truncated, DHFR fusion (Arabidopsis thaliana); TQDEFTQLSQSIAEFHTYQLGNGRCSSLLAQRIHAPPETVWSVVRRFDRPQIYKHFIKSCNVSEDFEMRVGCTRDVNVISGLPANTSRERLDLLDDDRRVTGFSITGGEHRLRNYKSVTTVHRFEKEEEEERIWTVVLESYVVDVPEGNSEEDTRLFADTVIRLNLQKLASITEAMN; partner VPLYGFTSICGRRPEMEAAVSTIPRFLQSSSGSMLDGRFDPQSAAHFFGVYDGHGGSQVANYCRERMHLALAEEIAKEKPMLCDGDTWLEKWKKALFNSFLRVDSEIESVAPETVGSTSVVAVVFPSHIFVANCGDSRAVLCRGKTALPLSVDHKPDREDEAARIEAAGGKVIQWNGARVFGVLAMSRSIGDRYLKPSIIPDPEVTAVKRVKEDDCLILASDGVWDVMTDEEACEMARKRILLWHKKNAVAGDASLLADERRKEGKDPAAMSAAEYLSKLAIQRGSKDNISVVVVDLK
Change,relative binding score
N165P,5.38%
E139I,-9.71%
D96E,39.4%
S11Y,35.1%
G81I,11%
D95M,-7.03%
G148C,1.33%

# Set 3
# Target: Interferon regulatory factor 3, full length, phosphomimetic (IRF3, Homo sapiens, UniProt Q14653, residues 1-427, S386D/S396D/S398D/S402D/T404D/S405D)
# Chain of UniProt Q14653 (whole entry, unmodified, looked up): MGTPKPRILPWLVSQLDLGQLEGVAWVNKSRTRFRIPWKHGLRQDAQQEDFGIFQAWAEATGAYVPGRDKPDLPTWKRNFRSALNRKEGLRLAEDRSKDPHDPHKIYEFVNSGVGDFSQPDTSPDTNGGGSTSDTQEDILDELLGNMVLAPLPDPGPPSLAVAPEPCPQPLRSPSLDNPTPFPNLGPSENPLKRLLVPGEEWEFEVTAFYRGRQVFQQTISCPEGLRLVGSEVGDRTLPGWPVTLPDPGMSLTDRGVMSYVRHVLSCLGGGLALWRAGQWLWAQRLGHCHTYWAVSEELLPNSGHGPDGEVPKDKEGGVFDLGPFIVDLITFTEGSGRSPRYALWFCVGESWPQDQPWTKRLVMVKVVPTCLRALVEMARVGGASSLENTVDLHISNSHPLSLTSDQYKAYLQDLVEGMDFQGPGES
# Technique: protein-binding microarray
# Molecule type: double-stranded DNA, one strand shown
# Medium: in vitro
# Concentration: 2540 nM top
# Notes: 60-bp whole probe
# Added: salmon DNA 0.4 mg/ml
# Relative to: random background probes
# Direction: higher = stronger binding
# Constant ends, left off below: GCCTAGCAC … GTCTTGATTCGCTTGACGCTGCTG
Strand,fitted relative affinity [z-score]
GACGATTTCCGACTGGAGACGTGCTAG,1.9
TTAGGTCTCGGTCTCAGTTAGTGCTAG,0.878
GACGGTTTCGACATTGGGGACGTGCTA,3.22
TTCCTTCTTGAACTCTTTACGTGCTAG,2.07
TTAGGACTGGGGTTTCGGTTAGTGCTA,2.41
TTAGATCGCAGTATCGATTAGTGCTAG,0.746
GACGGTCTCGACTATCGGGACGTGCTA,0.107
GTAGGTATCCTTATCCTTTAGTGCTAG,5.43
TTAGATTTCGAGTTTCGATTAGTGCTA,3
TCAACTTCCCAATTGTCACTGTGCTAG,1.54

# Mixed results
Molecule,target,assay,test system,setting,scale,measurement,value
"PhoQ, residues 284 288 289 292 302 303 SCEHLI","PhoP, residues 12 14 15 18 19 LHTVM (Escherichia coli, UniProt P23836)","Sort-seq, item: YFP reporter",E. coli,"PhoQ-PhoP variant library, added: 10 µM Mg2+","relative to: high Mg2+ state, higher = stronger signaling",fold induction,32.5
